{"data": "Assay results collected from several papers", "note": "Compare with care: the assays were run in different laboratories. Several values in a cell are separate wells, animals, samples, runs or records. ± marks the error that the study gave."}
{"Structure (SMILES)": "COc1cc(C(SC(C)C)SC(C)C)ccc1OCCNS(=O)(=O)c1ccc(Br)cc1", "organism": "tobacco mosaic virus", "assay": "inactivation activity", "system": "in vivo plant", "measurement": "EC50", "value": "63.8 ± 1.2 µg/mL"}
{"Structure (SMILES)": "CCOC(=O)C1(Cc2c(F)cccc2F)Oc2cc(F)ccc2N(Cc2c(F)cccc2F)C1=O (stereo not shown)", "organism": "Eclipta prostrata", "assay": "fresh weight, greenhouse postemergence", "conditions": "postemergence, 150 g ai/ha, 21 days", "measurement": "inhibition", "value": "61 ± 2.29%"}
{"Structure (SMILES)": "O=CCNCCOn1c(=O)n(OCCNCCO)c(=O)n(OCCNCCOn2c(=O)n(OCCNCCO)c(=O)n(OCCNCCO)c2=O)c1=O", "organism": "Bacillus cereus", "assay": "broth microdilution", "measurement": "MLC", "value": "2 µg/mL"}
{"Structure (SMILES)": "[O-][N+]1=C(c2ccc(Cl)cc2)C2=NCCCN2c2ccccc21", "organism": "Prevotella spp.", "assay": "bacterial growth", "measurement": "MIC90", "value": "1 µg/mL"}
{"Structure (SMILES)": "CC[C@H](C)[C@H](NC(=O)[C@H](C)NC(=O)CNC(=O)[C@H](C)NC(=O)[C@H](CCCCN)NC(=O)[C@H](CO)NC(=O)[C@H](C)NC(=O)[C@H](CCSC)NC(=O)CN)C(=O)N[C@@H](C)C(=O)NCC(=O)N[C@@H](CCCCN)C(=O)N[C@H](C(=O)N[C@@H](C)C(=O)N[C@@H](CCCCN)C(=O)N[C@H](C(=O)N[C@@H](C)C(=O)N[C@@H](CC(C)C)C(=O)N[C@@H](CCCCN)C(=O)N[C@@H](C)C(=O)N[C@@H](CC(C)C)C(N)=O)C(C)C)[C@@H](C)CC", "organism": "Escherichia coli", "system": "CFT073 wild type", "conditions": "with: ampicillin", "measurement": "combination index", "value": 1.1}
{"Structure (SMILES)": "CCCCCCCCCCCCCC(=O)N[C@H]1C(=O)N[C@@H](CN)C(=O)N[C@@H](CO)C(=O)N[C@@H](Cc2ccc(O)cc2)C(=O)O[C@H]1C", "organism": "Staphylococcus aureus", "system": "SH1000", "conditions": "with: sphingomyelin, molar ratio 2", "measurement": "MIC", "value": "2 µg/mL"}
{"Structure (SMILES)": "CCCSC(SCCC)c1ccc(OCCNS(=O)(=O)c2cccc(C(F)(F)F)c2)c(OC)c1", "organism": "Tobacco mosaic virus", "assay": "curative activity", "system": "plant in vivo", "measurement": "EC50", "value": "394 ± 7.5 µg/mL"}
{"Structure (SMILES)": "FC(F)(F)c1cccc(CNc2nc(NC3CCN(Cc4ccccc4)CC3)c3nc[nH]c3n2)c1", "organism": "Cryptococcus neoformans", "assay": "RNA-seq, item: CNAG_05329", "conditions": "48 µg/mL, 3 h", "scale": "reference: untreated", "measurement": "mRNA fold change", "value": 1.16}
{"Structure (SMILES)": "CCSC(SCC)c1ccc(OCCNS(=O)(=O)c2ccc(C)cc2)c(Cl)c1", "organism": "Tobacco mosaic virus", "assay": "protective activity", "system": "plant in vivo", "measurement": "EC50", "value": "892.2 ± 2.3 µg/mL"}
{"Structure (SMILES)": "CC[C@H](C)CCCCC(=O)N[C@@H](CCN)C(=O)N[C@H](C(=O)N[C@@H](CCN)C(=O)N[C@H]1CCNC(=O)[C@H]([C@@H](C)O)NC(=O)[C@H](CCN)NC(=O)[C@H](CCN)NC(=O)[C@H](CC(C)C)NC(=O)[C@@H](CC(C)C)NC(=O)[C@H](CCN)NC1=O)[C@@H](C)O", "organism": "Escherichia coli", "assay": "daily serial passaging", "system": "ATCC 8739", "conditions": "highest sub-MIC, 15 days", "scale": "reference: initial MIC", "measurement": "MIC fold change", "value": 1.47}
{"Structure (SMILES)": "CCOC(=O)C1(CC#N)Oc2cc(F)ccc2N(CC#N)C1=O (stereo not shown)", "organism": "Echinochloa crus-galli", "assay": "fresh weight, greenhouse postemergence", "conditions": "postemergence, 150 g ai/ha, 21 days", "measurement": "inhibition", "value": "40 ± 1.49%"}
{"Structure (SMILES)": "COc1ccccc1-c1n[nH]c2nc(N[C@H]3CC[C@H](NS(=O)(=O)CC(C)C)CC3)ncc12", "organism": "Leishmania donovani", "system": "promastigotes, LdBOB CRK12 single knockout", "scale": "reference: wild type", "measurement": "EC50 fold change", "value": 0.5}
{"Structure (SMILES)": "[O-][N+]1=C(c2ccsc2)C2=NCCCN2c2ccccc21", "organism": "Prevotella spp.", "assay": "bacterial growth", "measurement": "MIC90", "value": "0.5 µg/mL"}
{"Structure (SMILES)": "CC[C@H](C)[C@H](NC(=O)[C@H](CCCNC(=N)N)NC(=O)[C@H](CO)NC(=O)[C@H](Cc1ccc(O)cc1)NC(=O)[C@@H](NC(=O)[C@@H](NC(=O)[C@H](C)NC(=O)CNC(=O)[C@H](CCCCN)NC(=O)[C@H](CCCCN)NC(=O)CCNC(=O)CCCCCNC(=O)[C@H](CCCNC(=N)N)NC(=O)CCCCCNC(=O)[C@H](CCCNC(=N)N)NC(=O)[C@H](CCCNC(=N)N)NC(=O)CCCCCNC(=O)[C@H](CCCNC(=N)N)NC(=O)[C@H](CCCNC(=N)N)NC(=O)CCCCCNC(=O)[C@H](CCCNC(=N)N)NC(=O)[C@H](CCCNC(=N)N)NC(=O)CCCCCNC(=O)[C@@H](N)CCCNC(=N)N)C(C)C)[C@@H](C)O)C(=O)N[C@@H](CO)C(=O)NCC(=O)N[C@@H](CCC(N)=O)C(=O)N[C@@H](Cc1ccc(O)cc1)C(=O)N[C@@H](CCCCN)C(=O)O", "organism": "Escherichia coli", "system": "ATCC 25922, Mueller-Hinton broth", "conditions": "with: CaCl2 2 mM", "measurement": "MIC", "value": "48 µM"}
{"Structure (SMILES)": "CC(C)SC(SC(C)C)c1ccc(OCCNS(=O)(=O)c2ccc(Br)cc2)c(Cl)c1", "organism": "Tobacco mosaic virus", "assay": "inactivation activity", "system": "plant in vivo", "measurement": "EC50", "value": "134 ± 1.8 µg/mL"}
{"Structure (SMILES)": "CCOC(=O)C1(Cc2cc(F)cc(F)c2)Oc2cc(F)ccc2N(Cc2cc(F)cc(F)c2)C1=O (stereo not shown)", "organism": "Echinochloa crus-galli", "assay": "fresh weight, greenhouse postemergence", "conditions": "postemergence, 150 g ai/ha, 21 days", "measurement": "inhibition", "value": "58.2 ± 1.54%"}
{"Structure (SMILES)": "C[C@H](NC(=O)Cc1cc(F)cc(F)c1)C(=O)N[C@@H]1C(=O)N(C)c2ccccc2-c2ccccc21", "organism": "dengue virus type 2", "assay": "viral replication, Renilla luciferase reporter virus", "system": "Huh-7.5.1", "conditions": "48 h", "measurement": "EC50", "value": "20 nM"}
{"Structure (SMILES)": "Cc1ccc(N2CC3CC(C2)N3C)cc1C(=O)NC1(c2ccc3c4c(cccc24)C(=O)N3C)CC1", "organism": "Human coronavirus NL63", "assay": "viral replication", "conditions": "1 µM", "measurement": "inhibition", "value": "85.5%"}
{"Structure (SMILES)": "CCCCSC(SCCCC)c1ccc(OCCNS(=O)(=O)c2c(F)cccc2F)c(OC)c1", "organism": "Tobacco mosaic virus", "assay": "virus inactivation", "system": "plant in vivo", "measurement": "EC50", "value": "> 2500 µg/mL"}
{"Structure (SMILES)": "C[N+]1=C2C(c3ccccc3)=[N+]([O-])c3ccccc3N2CCC1", "organism": "Parabacteroides distasonis and Bacteroides spp.", "assay": "bacterial growth", "measurement": "MIC90", "value": "4 µg/mL"}
{"Structure (SMILES)": "CCN(CC)CCO.O=C(O)C(Cl)Cl", "organism": "Eclipta prostrata", "conditions": "15 mg/mL, 21 days, pre-emergence, greenhouse", "measurement": "herbicidal inhibition", "value": "0%"}
{"Structure (SMILES)": "Cc1cc(C(=O)Nc2nc3cccc(C)c3n2[C@H]2CCCCN(C(=O)/C=C/CN(C)C)C2)ccn1", "organism": "Trypanosoma brucei", "system": "STIB795, mouse acute HAT model", "conditions": "oral, 50 mg/kg once daily for 4 days, day 31", "scale": "reference: mice", "measurement": "survival", "value": "100%"}
{"Structure (SMILES)": "CCCSC(SCCC)c1ccc(OCCNS(=O)(=O)c2ccc(Br)cc2)c(OC)c1", "organism": "tobacco mosaic virus", "assay": "curative activity", "system": "in vivo plant", "measurement": "EC50", "value": "> 2500 µg/mL"}
{"Structure (SMILES)": "CN(C(=O)c1ccn2ncc(-c3ccc(C(N)=O)cc3)c2c1)c1ccc(C#N)cn1", "organism": "Cryptosporidium parvum", "system": "UGA1 Nluc, IFN-gamma knockout C57BL/6 mice, faeces", "conditions": "oral, 10 mg/kg daily, 432 h post infection, treatment days 11-17", "scale": "higher means more parasites", "measurement": "faecal Nluc luminescence", "value": "280 a.u. and 57 a.u. and 2210 a.u. and 3280 a.u. and 3020 a.u."}
{"Structure (SMILES)": "CCn1cnc2c(Oc3ccc(/C=C/C(=O)c4ccc(NS(=O)(=O)c5ccccc5C)cc4)cc3)ncnc21", "organism": "tobacco mosaic virus", "assay": "inactivation activity", "system": "in vivo plant", "measurement": "EC50", "value": "91.7 ± 1.8 µg/mL"}
{"Structure (SMILES)": "C[N+]1=C2C(c3ccc([N+](=O)[O-])cc3)=[N+]([O-])c3ccccc3N2CCC1", "organism": "Prevotella spp.", "assay": "bacterial growth", "measurement": "MIC50", "value": "0.5 µg/mL"}
{"Structure (SMILES)": "CCCSC(SCCC)c1ccc(OCCNS(=O)(=O)c2cccc(Br)c2)c(Cl)c1", "organism": "Tobacco mosaic virus", "assay": "curative activity", "system": "plant in vivo", "measurement": "EC50", "value": "244 ± 2.5 µg/mL"}
{"Structure (SMILES)": "CCOC(=O)C1(C)Oc2cc(F)ccc2N(C)C1=O (stereo not shown)", "organism": "Echinochloa crus-galli", "assay": "fresh weight, greenhouse postemergence", "conditions": "postemergence, 150 g ai/ha, 21 days", "measurement": "inhibition", "value": "55.6 ± 2.06%"}
